Measurements of several laboratories.
Every numbered part comes from another study and shows a few of its results, in no order. Substitutions count along the parent as printed.

Block 1
Target: Histone acetyltransferase KAT6A, both winged helices, GST fusion (KAT6A, Homo sapiens, UniProt Q92794, residues 1-181)
Method: protein binding microarray
Form: double-stranded DNA, one strand shown
Medium: in vitro
Concentration: not given
Setting: 8-mer, flanks averaged, mean of 2 arrays, mostly near background
Baseline: not given
Reading: higher = stronger binding
Quantity: E-score
Target sequence (chain): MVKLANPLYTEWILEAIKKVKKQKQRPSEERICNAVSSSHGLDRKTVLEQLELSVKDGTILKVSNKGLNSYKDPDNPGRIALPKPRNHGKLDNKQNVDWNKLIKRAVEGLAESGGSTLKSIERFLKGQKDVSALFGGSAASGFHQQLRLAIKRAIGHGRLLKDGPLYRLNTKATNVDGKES
AAGCACGT: -0.0666
GAAGAAGC: 0.0102
ACAGATAT: -0.0536
GATAATCA: 0.0612
GTCTAACA: -0.0117
AGCGAATG: -0.00282
CAGAACTA: -0.0512
CTTGCTCA: -0.0693
AGGCTGGG: -0.297
GGCGAAAA: 0.154
CCGCCGTC: 0.271
ATCTAAAG: -0.136
CCCCTCCA: -0.193
ATCCAAGG: -0.0618
ATCAAAGC: -0.018

Block 2
Target: Interferon regulatory factor 7, full length, phosphomimetic (IRF7, Homo sapiens, UniProt Q92985, residues 1-503, S101K/S471D/S472D/S475D/S476D/S477D/S483D/S484D/S487D)
Sequence of UniProt Q92985 (whole entry, unmodified, looked up): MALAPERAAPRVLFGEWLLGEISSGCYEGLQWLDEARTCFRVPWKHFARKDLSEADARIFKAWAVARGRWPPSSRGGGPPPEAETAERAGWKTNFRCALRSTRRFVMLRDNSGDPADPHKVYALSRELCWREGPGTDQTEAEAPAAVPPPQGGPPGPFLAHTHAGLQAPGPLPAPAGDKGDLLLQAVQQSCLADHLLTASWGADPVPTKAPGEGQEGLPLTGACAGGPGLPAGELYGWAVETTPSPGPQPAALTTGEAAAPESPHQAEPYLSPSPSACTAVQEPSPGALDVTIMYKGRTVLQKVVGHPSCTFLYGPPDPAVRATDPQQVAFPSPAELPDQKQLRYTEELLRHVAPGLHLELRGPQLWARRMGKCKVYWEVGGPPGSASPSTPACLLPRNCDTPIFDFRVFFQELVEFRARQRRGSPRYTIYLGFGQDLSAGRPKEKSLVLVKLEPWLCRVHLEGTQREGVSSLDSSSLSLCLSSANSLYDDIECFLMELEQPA
Method: protein-binding microarray
Form: double-stranded DNA, one strand shown
Medium: in vitro
Concentration: 250 nM
Setting: 60-bp whole probe
Added: salmon DNA 0.4 mg/ml
Baseline: random background probes
Reading: higher = stronger binding
Quantity: log fluorescence
All sequences stand within: GCCTAGCAC … GTCTTGATTCGCTTGACGCTGCTG
GACGGACTGCTTCTCCTGTCGTGCTAG: -0.0384 z-score
CATCATTGCTTTCTCTTTCAGTGCTAG: 0.894 z-score
TTAGGTTTCCTTACCCTTTAGTGCTAG: 1.09 z-score
TGAGAACTGGGGACTGGATTAGTGCTA: -0.431 z-score
TTAAGACTGGACTTTCGGTTAGTGCTA: 0.675 z-score
TTTTTTTTTTTTTTTGGAATGTGCTAG: 0.697 z-score
TTAGATTTCAGTTACGATTAGTGCTAG: 1.24 z-score
GTAGGTCTCGGTTTCGGTTAGTGCTAG: 10.3 z-score
TTCGATCTCAGTCTCGATTAGTGCTAG: 1.28 z-score
TTGGGTTTCGGGTATCGGTTAGTGCTA: 6.69 z-score
GTATGGATGTGTTTTAAATAGTGCTAG: -0.251 z-score
GCATCGTAAGCAAAAATGATGTGCTAG: 0.426 z-score
TTAGATTCCAGTGTCGATTAGTGCTAG: 0.772 z-score
TTTGGTATCGACACTGGGTTAGTGCTA: 0.0776 z-score
TTAGGACTGCTACTGCTTTGGTGCTAG: -0.57 z-score
TTAGGTATCGGGTTGCGGTTAGTGCTA: 2.96 z-score
TCAATTTTGCTTTCATTACTGTGCTAG: 0.922 z-score
TTATATTTTAATCACATATAGTGCTAG: 0.869 z-score
TTTGATTTCGGGTATCGATTAGTGCTA: 1.94 z-score
TTAGAACTGGGGACAGGATTAGTGCTA: -0.622 z-score

Block 3
Target: Fragile X messenger ribonucleoprotein 1, C-terminal low-complexity region (Fmr1, Mus musculus, UniProt P35922)
Method: RNA Bind-n-Seq
Form: RNA
Medium: in vitro
Concentration: 200 nM
Setting: whole 134-nt RNA, ends assumed
Added: 150 mM KCl
Baseline: input library
Reading: higher = stronger binding
Quantity: log2 enrichment
All sequences stand within: GGGAGUUCUACAGUCCGACGAUC … UGGAAUUCUCGGGUGUCAAGG
UGUUGCCGUGUGUCUCACCCUACCAUUUCAGAAAAAUGUUCGUUGGUGGCCUGAGCUGGGAUACUAGCAAAAAAGAUUUAAAAGACUAUU: -2.22
AAGUCCUGUGCUACACAUCGUAUGUACCGAAUCGGAAAGGAAAAAGGUUUUUUUGGAAAGUAUUAUGUUACGCCGUUCGGAUCUGCACUU: -1.2
UCCUUUGUGUUUACAAAAGCACUGACCCUUUACCUUUUCUUUAGCAAGAAGAAUGGAAUGAACAUAAUGCCAAAAUAAUUAAAUAUAUAA: 1.14
UCCUGUGCUACACAUCGUAUGUACCGAAUCGGGGCCCCCCGGGCCCCCCGGCCCCCCGGGAAAGUAUUAUGUUACGCCGUUCGGAUCUGC: -0.0794
ACCAUGCAGGUGGGCAUCUUUGGGAAGUAGGGCAAGGGGGGGAUAGGGAGGGGGGUAACACUUUGGGAACAGGUGGUCCCAGGUCGUUUC: 0.688
GUCCUGUGCUACACAUCGUAUGUACCGAAUCGGGGAAAAAGGGGAGGGGAAAAAGGGGAAAGUAUUAUGUUACGCCGUUCGGAUCUGCAC: 0.404
AAGUCCUGUGCUACACAUCGUAUGUACCGAAUCGGGCCCGGGGCCCGGGCCCGGGGAAAGUAUUAUGUUACGCCGUUCGGAUCUGCACUU: -1.61
CAAUGGGAAUGGACCAAAGAGUUUCAGGGAAACUCCAGUAUAUUCCAGAGUCAGAUCUAAGCUCCAGGCACGCCUGAAGAUGUGUUGCUA: -0.0957
UGGCCCUGGUGGCAUGCGGGGAGGAAGAGGUGGCCUCAUGGAUCGUGGUGGUCCCGGUGGAAUGUUCAGAGGUGUCCGUGGUGGAGACAG: 0.168
UCCUGUGCUACACAUCGUAUGUACCGAAUCAAAUUUUUUUAAAUUUUUAAACCCCCAAAAAAGUAUUAUGUUACGCCGUUCGGAUCUGCA: 0.432
UCAAGUCCUGUGCUACACAUCGUAUGUACCGAAUCGGGUUUGGGUUUGGGUUUGGAAAGUAUUAUGUUACGCCGUUCGGAUCUGCACUUC: -0.286
AUAGAUUGCGCAGUCUCUUUGUGGAGAGGACUUGAUCAUUAAAGGAAUCAGCGUUCAUAUAUCCAAUGCCGAACCUAAGCACAAUAGCAA: 0.212
CACAGACAACACGCACCCACACAGACACAGAGGGAAGGGGUUGGGAUGGUGACAGGGUGCACAGCAGGGCGGGGUAGGACCCCAGCCCCU: 0.752
CCUCAAGUCCUGUGCUACACAUCGUAUGUACCGAAUCGGGGAGGGAGGGAGGGAAAGUAUUAUGUUACGCCGUUCGGAUCUGCACUUCCA: 1.18

Block 4
Target: ABI1, truncated, D143A, DHFR fusion (Arabidopsis thaliana)
Method: DHFR PCA, deep sequencing
Medium: yeast
Setting: methotrexate growth selection, single substitutions
Added: (+)-ABA 0.39 µM
Baseline: wild-type fitted maximum
Reading: higher = stronger binding
Quantity: relative binding score
Parent: PYL1, truncated, DHFR fusion (Arabidopsis thaliana); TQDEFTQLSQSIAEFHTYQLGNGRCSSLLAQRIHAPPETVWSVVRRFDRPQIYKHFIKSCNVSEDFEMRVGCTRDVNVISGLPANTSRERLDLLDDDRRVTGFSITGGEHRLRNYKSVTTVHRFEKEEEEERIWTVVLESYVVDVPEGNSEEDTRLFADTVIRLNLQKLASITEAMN
Y115I: -4.76%
E130L: 28.4%
E89D: -1.94%
Q31P: -8.92%
I162R: 9.89%
E14G: 2.99%
F66S: 11.1%
A35K: -3.73%
E67V: 52.7%
G148K: -5.26%
I172C: -3.13%
L82C: 12.5%

Block 5
Target: RNA binding protein fox-1 homolog 2, RRM domain, GST-SBP tag (RBFOX2, Homo sapiens, UniProt O43251-10, residues 100-194)
Method: RNA Bind-n-Seq
Form: RNA
Medium: in vitro
Concentration: 365 nM
Setting: natural RNA segment, single round, ends assumed
Baseline: no-protein control
Reading: higher = stronger binding
Quantity: RBNS enrichment (R)
All sequences stand within: GGGAGUUCUACAGUCCGACGAUC … UGGAAUUCUCGGGUGCCAA
CAGGAAAGCUGGGGAAGGUUAUGAGUGGGAAUACUGUUUCGAAAGUAUCGUGCAUUAAAUGGGCAGUGUUAAUGUAGAACCAGGGUUCUACCACAUGCAAGUCUGUGUCC: 0.655
GCCCUAUAGUUCUGUGACUUCAUUUGCUAUACGCUUUAAAUGUGUUGAGCAGCCUAUGAACCUAAAGACAUACUGCAGUUUGUUCAUAAAUGUAUUCAGUCUUUUAUUCU: 0.442
UCAUCAUGACACAGCAAGCCGUGACCCCUCUGUCUGCUGUACUGGCCCAGCCUCCUGCUCGCACCUCCUGCCCUACCUAGGAAGCCCUCCAGAGGGCCAGCCUCUGCUGA: 0.379
CUCUGUAAAGUUCCUCAUCCCUGUGAAGCAGGGAAAGAACAGAGGUGCCUCUGGACUGCAGGAGAAAGGCGUCGUGCCAGGCAGUAUCCUGUGGAGGGAGGAGGGUGUAC: 0.487
GGUAGACAUUUCCUAAAGUUGAAGCAGUAGCUUCAUAGAGUCUUGGUUACUUUAUUUUUUUUAAUGCUUUACAUUUGAUACAACUAUUGAAGAUCAAUUUAAAAAUAACU: 0.682
GAUUGAUUGCCUUUGGUCAGUAAUGCGUUCAGGAGUCCACACCAGGCACAGAUGGGGCCUUGAAACGCUUUGUCAUGCUUCUUCAGUACCAUGGAUUUGAAAUGAACUCA: 0.801
UUUCCAUUGCCUUAACGCUGGGUGGUCAGGGCCCCAAGGAACUCUGGAUCUAAGCUCAGGAGUACACAUAGCAGCUAUGGGUAUGGGUGUCCUCCUCUGGUGUAACUGUG: 0.674
CCUUCCCUGUUUUCUCCCCAGAAUUCUAAAACAAAGUUCAGUGGCGAGCAGCAUCUCUAGGCUCUGGUCCUGUCUGGCCAUGGUGCGCCCGUGGCCCUGCCUCCUAGUGC: 0.538
ACUCUCCCAAGGAAAAUAUUGCCACCAUUUGUAGACCACGUAACCUUCAAGUAUGUGCUACUUUUUUGUCCCUGUAUCUAACUCAAAUCAGGAACUGUAUUUUUUUUAAU: 0.643

Repeated from above (block 2):
TTAGATTTCAGTTACGATTAGTGCTAG: 1.24 z-score
GTAGGTCTCGGTTTCGGTTAGTGCTAG: 10.3 z-score
TTCGATCTCAGTCTCGATTAGTGCTAG: 1.28 z-score
TTGGGTTTCGGGTATCGGTTAGTGCTA: 6.69 z-score
GTATGGATGTGTTTTAAATAGTGCTAG: -0.251 z-score
GCATCGTAAGCAAAAATGATGTGCTAG: 0.426 z-score
TTAGATTCCAGTGTCGATTAGTGCTAG: 0.772 z-score
TTTGGTATCGACACTGGGTTAGTGCTA: 0.0776 z-score
TTAGGACTGCTACTGCTTTGGTGCTAG: -0.57 z-score
TTAGGTATCGGGTTGCGGTTAGTGCTA: 2.96 z-score
TCAATTTTGCTTTCATTACTGTGCTAG: 0.922 z-score
TTATATTTTAATCACATATAGTGCTAG: 0.869 z-score
